Measured values gathered from unrelated publications.
Each line is one published result; not all experiments were run side by side.
PIK3CD: Phosphatidylinositol 4,5-bisphosphate 3-kinase catalytic subunit delta isoform (PIK3CD, Homo sapiens, UniProt O00329)
PIK3CD with p85 alpha: Phosphatidylinositol 4,5-bisphosphate 3-kinase catalytic subunit delta isoform, with p85 alpha (PIK3CD, Homo sapiens, UniProt O00329)
TDP1: Tyrosyl-DNA phosphodiesterase 1 (TDP1, Homo sapiens, UniProt Q9NUW8)
UniProt Q9NUW8, sequence (whole entry, looked up): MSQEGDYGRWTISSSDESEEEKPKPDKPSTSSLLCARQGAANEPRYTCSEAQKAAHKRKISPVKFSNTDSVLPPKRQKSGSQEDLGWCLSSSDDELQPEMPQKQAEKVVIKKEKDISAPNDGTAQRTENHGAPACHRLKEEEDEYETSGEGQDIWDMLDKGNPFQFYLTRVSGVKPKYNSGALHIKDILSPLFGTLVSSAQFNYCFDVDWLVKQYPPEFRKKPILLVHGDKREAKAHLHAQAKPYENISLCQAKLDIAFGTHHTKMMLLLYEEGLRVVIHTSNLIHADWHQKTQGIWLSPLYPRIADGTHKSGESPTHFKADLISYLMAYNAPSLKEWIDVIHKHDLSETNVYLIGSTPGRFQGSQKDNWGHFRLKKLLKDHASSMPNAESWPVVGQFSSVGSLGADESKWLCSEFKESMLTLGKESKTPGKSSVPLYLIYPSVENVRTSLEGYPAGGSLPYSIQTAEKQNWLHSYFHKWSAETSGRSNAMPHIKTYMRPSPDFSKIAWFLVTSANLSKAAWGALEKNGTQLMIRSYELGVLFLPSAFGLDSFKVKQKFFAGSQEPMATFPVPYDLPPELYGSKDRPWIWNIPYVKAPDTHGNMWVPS

| SMILES | target | test | test system | setting | how to read | quantity | result |
| --- | --- | --- | --- | --- | --- | --- | --- |
| CS(=O)(=O)Nc1cccc(-c2csc3cnc(Nc4ccc(N5CCN(CCCCCOc6cccc7c6C(=O)N(C6CCC(=O)NC6=O)C7=O)CC5)cc4)nc23)c1 (stereo not shown) | PIK3CD | probe labelling, inhibitor, KiNativ chemoproteomics | MOLT-4 | 1 µM |  | inhibition | -10.9% |
| CC(=O)c1cnc(N)nc1N1CC[C@H]1c1nn2ccc(Cl)c2c(=O)n1-c1ccccc1 | PIK3CD | kinase occupancy, inhibitor, KiNativ ATP probe profiling | intact PBMC | 0.1 µM, 1 h |  | inhibition of probe binding | 77.2% |
| CN1CC[C@@H](COc2cnc(C#N)cc2-c2ccn3nc(NC(=O)C4CC4)cc3c2)C1 | PIK3CD with p85 alpha | inhibitor, KinaseProfiler panel |  | 1 µM |  | inhibition | 2% |
| CC(C)=CC1OC(C)(C)C2C=C3C(=O)C(Cl)=CC(O)C3C3C(O)C4OC4C(=O)C132 (stereo not shown) | PIK3CD | cell-free assay, competition with immobilised ligand |  | 10 µM |  | remaining binding | 79% |
| C=CC(=O)N1CCc2ccc(-n3c(=O)ccc4cnc5ccc(-c6cnn(C)c6)cc5c43)cc21 | PIK3CD | KINOMEscan |  | 1 µM | relative to: DMSO control | remaining binding | 100% |
| C=CC(=O)Nc1cccc(-c2cnc3[nH]cc(C(=O)NC(C)(C)C)c3n2)c1 | PIK3CD | enzyme activity, inhibitor |  | 0.1 µM |  | inhibition | 19% |
| Nc1ncc2c(n1)-c1c([nH]c3ccc(C4=CCOCC4)cc13)CCC2 | PIK3CD | binding, competition with immobilised ligand |  | 1 µM |  | remaining binding | 99% |
| O=C(O)c1ccc(Nc2c(-c3ccc(CON=Cc4cccc(NC(=O)C(F)(F)F)c4)cc3)nc3cc(-c4ccccc4)ccn23)cc1 (mixture of isomers) | TDP1 | enzyme activity, inhibitor |  | 100 µM, unpurified compound |  | inhibition | 53.8% |
| C=CC(=O)N1Cc2nc(-c3cc(-c4cc(Cl)cnc4Cl)c(F)cc3F)n(-c3ccncn3)c2C1 | PIK3CD with p85 alpha | kinome panel |  | 1 µM |  | inhibition | 15.4% |
| Cc1ccc(-c2c(/C=C(\C#N)C(=O)NC(C)C)n(CCCO)c3ncnc(N)c23)cc1 | PIK3CD | cell-free assay, competition with immobilised ligand |  | 1 µM |  | remaining binding | 100% |
| CNC(=O)C[C@H](Cc1ccc(C#N)cc1)NC(=O)c1cc(-c2ccc(CN[C@H](C)c3ccc(C)cc3)o2)ccc1Cl | PIK3CD with p85 alpha | enzyme activity, KinaseProfiler panel |  | 1 µM |  | remaining activity | 101% |
| COc1cc(Nc2nccc(-c3cnn4nc(OC)ccc34)n2)cc(C(F)(F)F)c1 | PIK3CD | binding, competition with immobilised ligand |  | 1 µM |  | remaining binding | 55% |
| CC(=O)Oc1ccc2ccccc2c1C=NOCc1ccc2nc(-c3ccccc3)c(Nc3ccc(C(=O)O)cc3)n2c1 (mixture of isomers) | TDP1 | enzyme activity, inhibitor |  | 100 µM, unpurified compound |  | inhibition | 45.4% |

For quick reference, copied from above:
| SMILES | target | test | test system | setting | how to read | quantity | result |
| --- | --- | --- | --- | --- | --- | --- | --- |
| Cc1ccc(-c2c(/C=C(\C#N)C(=O)NC(C)C)n(CCCO)c3ncnc(N)c23)cc1 | PIK3CD | cell-free assay, competition with immobilised ligand |  | 1 µM |  | remaining binding | 100% |
